# Assay results of several laboratories.
# Every numbered part comes from another study and shows a few of its results, in no order.

# Set 1
# Target: RNA binding protein fox-1 homolog 2, RRM domain, GST-SBP tag (RBFOX2, Homo sapiens, UniProt O43251-10, residues 100-194)
# Method: RNA Bind-n-Seq
# Molecule type: RNA
# Matrix: in vitro
# Tested at: 365 nM
# Setting: natural RNA segment, single round, ends assumed
# Relative to: no-protein control
# Reading: higher = stronger binding
# Constant ends, left off below: GGGAGUUCUACAGUCCGACGAUC … UGGAAUUCUCGGGUGCCAA
# Construct (chain): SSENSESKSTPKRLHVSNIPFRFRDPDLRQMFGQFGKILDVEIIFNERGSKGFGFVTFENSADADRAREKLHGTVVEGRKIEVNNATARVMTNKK
Sequence,RBNS enrichment (R)
AAACCACUAAAAUUAAGCUCUUACUACUUAGUCAACUAUCCUCAGCUGUAUUCGUACUCAAUUGUCAGUAUGGCACAGAUUACUGUAUUAAAAUAUUCUCCUUUCGUCUU,0.448
GUGCAACUUUCAGGAACUUUACUGCAGGUCAGUUAAACACAACUGUUACUGAAAACUAGAUGUAAACUUAAGUAUUUAGAACAAAAACUACUAGUAAAUACUCAGAACUC,0.476
UGGAAUGAUCCGAACUGGACUCACAUCCUGUAUGGUGGAUGGACUGUAUAUUGAGGGUUCCAUUCUUCGCGCAGUUUAGACAUCUCUGUUUUGAUUCUUUGUUGUUGUUU,0.642
CAUGAUUUGGCUCUCUGUUUGUCUGUUGUUGGUGUAUAAGAAUGCUUGUGAUUUUUGUACAUUGAUUUUGUAUCCUGAGACUUUGCUGAAGUUGCUUAUCAGCUUAAGGA,0.812
UGGGCUUUAGUUCCUCUCAUAAAAGGAAGAGAUGUAUUGGAUUAGACUAGAUGAUCACCACUUUCUCUUCUAGUUCUAAUUUUUUUAAUUCUAAUACCUAUAUUUUCAAG,0.589
AACCAAGCCCACCCUUCCACAUUGGGCCUGGCUGCUCUAUUCUGUACCAAGUACUGGAGAAAAAGCAUCAAGUUCUUAGCCCUUGUAGCUUCUACCCUAGUUUCCCAUCC,0.279
UUGCUACUGCGGACCUGUGGCUCCCUUGGCCAGCCAUGUUUUGGGAAAGAGUUCACAUCUUAGGUUUGAAAGGGAGCAUUUGAGUCUUCUCACUGACCUCUUCCUAGCAG,2.2
CCUAAGAAUAUAUACUAUGGAGUCUAUGGACCACUGUAGAGAAGUUUUUAGUCUAGCCUGUUUGAUUACUUGUAAAUCUCUGCUAGAAGGAGAGAAUUUUCCAGACAACU,0.344
AAGUCCCAGGUUUAAAAAGCAAAGCAAAACAAAAAUAACCACGUAUUCUCUAAAGGGCUCUUGUCUGUUCAUUCAUCUCCCAUUCGUUCACUUAGUCAACAAGUGAUAAG,0.643

# Set 2
# Target: UBE2J2 UBC core domain (UniProt Q8N2K1)
# Chain of UniProt Q8N2K1 (whole entry, looked up): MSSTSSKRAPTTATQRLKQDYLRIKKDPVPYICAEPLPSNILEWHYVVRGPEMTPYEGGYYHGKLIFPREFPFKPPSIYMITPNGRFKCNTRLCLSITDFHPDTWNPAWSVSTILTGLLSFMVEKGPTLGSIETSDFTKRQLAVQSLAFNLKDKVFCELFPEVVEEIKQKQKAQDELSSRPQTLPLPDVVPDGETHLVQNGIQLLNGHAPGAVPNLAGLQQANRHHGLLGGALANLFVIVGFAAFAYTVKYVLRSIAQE
# Method: yeast two-hybrid
# Matrix: yeast
# Setting: mostly zero background
# Relative to: not given
# Reading: higher = stronger interaction
# B1: UBOX5 RING domain (UniProt O94941); chain EQPGSILGPECASCKRVFSPYFKKEPVYQLPCGHLLCRPCLGEKQRSLPMTCTACQRPVASQDVLR
# B2: RNF19A RING domain (UniProt Q9NV58); chain ISKQIGDFIECPLCLLRHSKDRFPDIMTCHHRSCVDCLRQYLRIEISESRVNISCPECTERFNPHDIR
# B3: DTX2 RING domain (UniProt Q86UW9); chain EELKVPPDEDCIICMEKLSTASGYSDVTDSKAIGSLAVGHLTKCSHAFHLLCLLAMYCNGNKDGSLQCPSCKTIYGEKTGTQ
# B4: SYTL4 RING domain (UniProt Q96C24); chain RGSQHYSDRTCARCQESLGRLSPKTNTCRGCNHLVCRDCRIQESNGTWRCKVCAKEIELKKAT
Sequence,lacZ reporter activity
KETIKKTTKPCPRCHVPVEKNGGCMHMKCPQPQCRLEWCWNCGCEWNRVCMG (PRKN RING domain (UniProt O60260)),0
AMYLQENGIDCPKCKFSYALARGGCMHFHCTQCRHQFCSGCYNAFYAKNKC (RNF31 RING domain (UniProt Q96EP0)),0
GSDDEEIPFKCFICRQSFQNPVVTKCRHYFCESCALQHFRTTPRCYVCDQQTNGVFNPA (RNF113A RING domain (UniProt O15541)),0
B1 (UBOX5 RING domain),0
GSRLQEINDVCAICYHEFTTSARITPCNHYFHALCLRKWLYIQDTCPMCHQKVYIEDDIK (RNF139 RING domain (UniProt Q8WU17)),6710
B2 (RNF19A RING domain),0
YQNEVDDDLVCHICLQPLLQPLDTPCGHTFCYKCLRNFLQEKDFCPLDRKRLHFKLCKK (LNX2 RING domain (UniProt Q8N448)),0
NLSELTPYILCSICKGYLIDATTITECLHTFCKSCIVRHFYYSNRCPKCNIVVHQTQPLY (PCGF6 RING domain (UniProt Q9BYE7)),0
AVPSGLEENLCKICMDSPIDCVLLECGHMVTCTKCGKRMNECPICRQYVIRAVHVF (RFFL RING domain (UniProt Q8WZ73)),0
B3 (DTX2 RING domain),0
B4 (SYTL4 RING domain),0
FDGDVDPDLKCALCHKVLEDPLTTPCGHVFCAGCVLPWVVQEGSCPARCRGRLSAKELN (PDZRN3 RING domain (UniProt Q9UPQ7)),0

# Set 3
# Target: Interferon regulatory factor 3, full length, phosphomimetic (IRF3, Homo sapiens, UniProt Q14653, residues 1-427, S386D/S396D/S398D/S402D/T404D/S405D)
# Method: protein-binding microarray
# Molecule type: double-stranded DNA, one strand shown
# Matrix: in vitro
# Tested at: 2540 nM top
# Setting: 60-bp whole probe
# Added: salmon DNA 0.4 mg/ml
# Relative to: random background probes
# Reading: higher = stronger binding
# Constant ends, left off below: GCCTAGCAC … GTCTTGATTCGCTTGACGCTGCTG
# Construct (chain): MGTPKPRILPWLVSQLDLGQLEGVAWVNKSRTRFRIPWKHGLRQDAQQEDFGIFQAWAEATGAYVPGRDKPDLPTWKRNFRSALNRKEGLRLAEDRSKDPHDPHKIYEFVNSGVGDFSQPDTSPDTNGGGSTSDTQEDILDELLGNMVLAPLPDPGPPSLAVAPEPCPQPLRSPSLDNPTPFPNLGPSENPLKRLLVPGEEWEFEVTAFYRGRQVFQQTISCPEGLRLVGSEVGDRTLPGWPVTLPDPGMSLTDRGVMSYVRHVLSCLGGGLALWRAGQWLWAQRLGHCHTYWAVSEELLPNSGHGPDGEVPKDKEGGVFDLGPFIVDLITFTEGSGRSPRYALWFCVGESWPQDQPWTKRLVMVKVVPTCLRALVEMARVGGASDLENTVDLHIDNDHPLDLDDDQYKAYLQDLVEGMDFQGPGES
Sequence,fitted relative affinity [z-score]
GACGGCTTCGGTTTCGGGACGTGCTAG,3.19
GACGATATCTGTTTCGAGACGTGCTAG,2.5
TCTTTTTTTCTTTTATTAGTGTGCTAG,2.82
GACGATCTTAGTTTCGAGACGTGCTAG,2.5
GTCTGTTTGGGTCTTGTCTGGTGCTAG,0.245
TTGAATCTCCCATTATATTTGTGCTAG,0.755
GACGATTTCGGGAATGGAGACGTGCTA,1.3
CCCTATTTAAGGCTAGGCACGTGCTAG,1.41
ATTGCTTTCTCTTTCACTACGTGCTAG,3.98
TTAGAACTGGGGAGTGGATTAGTGCTA,-0.829
GAAAATGCCCTTTTGGTGAGGTGCTAG,1.85
TCAATTTTTACATTATTACTGTGCTAG,0.747
TTAGATTTCATTATCGATTAGTGCTAG,2.54
CTAGTTTTACTTTCTATCTCGTGCTAG,6.34
TCATGTCTGTGTCACAGAGAGTGCTAG,0.451
TTTTTTTTTTTTCTGATCCAGTGCTAG,2.07
TTAGAACTTAGTCTCGATTAGTGCTAG,0.0217
TCAGGTATTTTTTTCTAACTGTGCTAG,0.538
TTAGGTTTACTTATCCTTTAGTGCTAG,1.84
TTAGATATCGGGTTTCGATTGGTGCTA,1.39
TTAGATCTCACTCTCGATTAGTGCTAG,0.773
CCCTGCGTGGTCTCGAGCTGGTGCTAG,-0.678
TTATGTATCGGTCTCGGTTAGTGCTAG,4.75
TTAGGTATCGGATTGGGTTAGTGCTAG,2.68
TTAGATTTCGGGACTGGACTAGTGCTA,1.34

# Set 4
# Target: Histone acetyltransferase KAT6A, winged helix 1, GST fusion (KAT6A, Homo sapiens, UniProt Q92794, residues 1-85)
# Method: protein binding microarray
# Molecule type: double-stranded DNA, one strand shown
# Matrix: in vitro
# Tested at: not given
# Setting: 8-mer, flanks averaged, mean of 2 arrays, mostly near background
# Relative to: not given
# Reading: higher = stronger binding
# Construct (chain): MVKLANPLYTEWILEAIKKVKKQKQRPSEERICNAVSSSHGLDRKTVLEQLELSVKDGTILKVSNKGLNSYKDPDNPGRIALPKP
Sequence,E-score
GAGTCATA,-0.0765
AGGTACTC,-0.0886
CTTGCTAA,-0.203
GGGAAAAC,0.0598
ACAAGCGT,0.0106
AATAGAGT,-0.192
AGTCGGAT,0.0529
GGAAACTA,-0.0898
CGGTAACC,0.324
CTATAGCC,-0.00371
CACCGAAG,-0.0274
GACGCACA,0.208
GGGTACCC,0.161
CTTGTAAC,0.0691
GCTTCCAA,0.02
CAGGGCCC,0.0405
ATACCTTA,-0.258
CTTGCTAC,-0.168
ACCGGGGC,0.268
AGCGCGAT,0.326
CTCTCTGC,-0.0906
CGAGGGTC,0.137
CATATCGC,0.163
CGTTTTGA,-0.0413
ATTGTCTG,-0.147

# A few entries again (set 2):
Sequence,lacZ reporter activity
GSRLQEINDVCAICYHEFTTSARITPCNHYFHALCLRKWLYIQDTCPMCHQKVYIEDDIK (RNF139 RING domain (UniProt Q8WU17)),6710
B2 (RNF19A RING domain),0
GSDDEEIPFKCFICRQSFQNPVVTKCRHYFCESCALQHFRTTPRCYVCDQQTNGVFNPA (RNF113A RING domain (UniProt O15541)),0
KETIKKTTKPCPRCHVPVEKNGGCMHMKCPQPQCRLEWCWNCGCEWNRVCMG (PRKN RING domain (UniProt O60260)),0
AVPSGLEENLCKICMDSPIDCVLLECGHMVTCTKCGKRMNECPICRQYVIRAVHVF (RFFL RING domain (UniProt Q8WZ73)),0
B1 (UBOX5 RING domain),0
FDGDVDPDLKCALCHKVLEDPLTTPCGHVFCAGCVLPWVVQEGSCPARCRGRLSAKELN (PDZRN3 RING domain (UniProt Q9UPQ7)),0
YQNEVDDDLVCHICLQPLLQPLDTPCGHTFCYKCLRNFLQEKDFCPLDRKRLHFKLCKK (LNX2 RING domain (UniProt Q8N448)),0
